Measured values from different studies.
Each line is one published result; not all experiments were run side by side. ± marks the error that the study gave. Values after ≈ are worked out from the molar mass of the structure shown.
EPHX2: Bifunctional epoxide hydrolase 2 (EPHX2, Homo sapiens, UniProt P34913)
PGR: Progesterone receptor (PGR, Homo sapiens, UniProt P06401)
Nr3c1: Glucocorticoid receptor (Nr3c1, Rattus norvegicus, UniProt P06536)
GBA1: Lysosomal acid glucosylceramidase (GBA1, Homo sapiens, UniProt P04062)
SNCA: Alpha-synuclein (SNCA, Homo sapiens, UniProt P37840)

CC(=O)N[C@@H](Cc1c[nH]c2ccccc12)C(=O)N[C@@H](Cc1c[nH]c2ccccc12)C(=O)N[C@@H](Cc1c[nH]c2ccccc12)C(=O)N[C@@H](Cc1c[nH]c2ccccc12)C(=O)N[C@@H](Cc1c[nH]c2ccccc12)C(=O)N[C@@H](Cc1c[nH]c2ccccc12)C(=O)N[C@@H](Cc1c[nH]c2ccccc12)C(=O)NCCCC[C@@H]1NC(=O)[C@H](CCCNC(=N)N)NC(=O)[C@H](CCCNC(=N)N)NC(=O)[C@H](CCCNC(=N)N)NC(=O)[C@H](CCCNC(=N)N)NC(=O)[C@H](CCCNC(=N)N)NC1=O — remaining activity (PRKCA (Homo sapiens, UniProt P17252); enzyme activity, inhibitor; 5 µM): 15.8%
Cc1ccc2c(c1Br)C(O)(CC(=O)c1ccc3c(c1)OCO3)C(=O)N2 (centres unmarked) — koff (Uncharacterized protein (Trypanosoma brucei brucei, UniProt Q386Q8); binding, surface plasmon resonance; Trypanosoma brucei): 0.11 ± 0.1 s⁻¹
CCCC(=O)Nc1ccc(OC)nc1C — specific activity (Cocaine esterase (CES2, Homo sapiens, UniProt O00748); substrate; 50 µM, pH 8, 37 °C, enzyme purity 4%): 14 pmol/min/µg
Fc1ccc(Nc2nc(NC3CCCCC3)c3ccccc3n2)cc1F — isoprenaline-stimulated cAMP production (ADRB2 (Homo sapiens, UniProt P07550); cAMP ELISA; HEK293, stably expressing target; 10 µM, 30 min, added: isoprenaline 1 µM, 10 min): no effect
CN1CCN(CC(=O)N2N=C3/C(=C/c4ccccc4)CCCC3C2c2ccccc2)CC1 (mixture of isomers) — lag phase change (ALOX15 (Homo sapiens, UniProt P16050); activator; 10 µM, added: arachidonic acid 50 µM; reference: no activator): 93 s
O=c1[nH]c(N2CCC3(CC2)CN(CCO)c2cc(F)cc(F)c23)nc2c1CCCC2 — enzyme activity (PARP1 (Homo sapiens, UniProt P09874); inhibitor, ELISA; up to 20 µM): no effect
N=C(N)NCCC[C@H](NC(=O)[C@H](CC(=O)O)NC(=O)[C@@H]1CSCCC(=O)NCC(=O)N[C@@H](Cc2c[nH]cn2)C(=O)N[C@H](Cc2ccccc2)C(=O)N[C@@H](CCCNC(=N)N)C(=O)N[C@H](Cc2c[nH]c3ccccc23)C(=O)N1)C(=O)N[C@@H](Cc1ccccc1)C(=O)NCC(N)=O — activation (MC5R (Homo sapiens, UniProt P33032); cAMP accumulation, agonist; HEK293 expressing MC5R; 10 µM; reference: MT-II): 0%
CCN(C(=O)C1CCN(S(=O)(=O)c2ccc3[nH]ncc3c2)CC1)[C@H]1CCc2ccccc21 — positive allosteric modulation (Muscarinic acetylcholine receptor M5 (Rattus norvegicus, UniProt P08911); calcium mobilization; CHO cells expressing rat M5; added: acetylcholine EC20): inactive
CC12CC3CC(C)(C1)CC(NC(=O)Nc1ccc(C(=O)N4CCC(C(=O)NC5CC5)CC4)cc1)(C3)C2 — lipophilic ligand efficiency (EPHX2): 5.86
Cc1cc2c(NC(=O)N[C@@H]3CC(C)(C)Oc4cc(C(F)(F)F)ccc43)c(C)ccc2cn1 — activity (TRPA1 (Homo sapiens, UniProt O75762); cell-based; no activity up to value): > 100 µM
CC(=O)O[C@H]1C(=O)[C@@]2(C)[C@H]([C@H](OC(=O)c3ccccc3)[C@]3(O)C[C@H](OC(=O)[C@H](OCOP(=O)(O)O)[C@@H](NC(=O)c4ccccc4)c4ccccc4)C(C)=C1C3(C)C)[C@]1(OC(C)=O)CO[C@@H]1C[C@@H]2O — hydrolysis rate (Alkaline phosphatase, placental type (Homo sapiens, UniProt P05187); drug formation; 100 µM, pH 7.6, 37 °C, added: 0.5 U/mL alkaline phosphatase): 2.03 pmol/min
CCCCCCSc1nc2c([nH]1)c(=S)n(C)c(=S)n2C — remaining activity (PGR; reporter gene, antagonist, MMTV-luciferase; T47D/A1-2; 10 µM, 24 h, added: 5 nM progesterone; reference: maximal activity): 106%
CC(CCC(=O)SCCNC(=O)CCNC(=O)C(O)C(C)(C)CO)C1CCC2C3C(O)CC4CC(O)CCC4(C)C3CC(O)C12C (centres unmarked) — Km (Pantetheinase (VNN1, Homo sapiens, UniProt O95497); hydrolysis, substrate, item: pantothenic acid; 15 min, 37 °C): 39.8 ± 20.3 µM
O=S1(=O)O[C@@H]2[C@H](CO)[C@@H](O)[C@H](O)[C@@H](O)[C@@H]2O1 — kinact/KI (GBA1 (Homo sapiens, UniProt P04062, R534H); β-glucosidase activity, irreversible inhibitor; pH 5.2, 37 °C, added: 2,4-DNP-β-Glc substrate): 0.0717 M⁻¹ s⁻¹
Cn1c(=O)c2[nH]c(SCCc3ccccc3)nc2n(C)c1=O — remaining activity (Nr3c1; reporter gene, antagonist, MMTV-luciferase; T47D/A1-2; 10 µM, 24 h, added: 5 nM dexamethasone; reference: maximal activity): 130%
CN(C)c1ccc(/N=N/c2ccc(C(=O)NCc3cn(CCOCCOC(CC(=O)NCCNc4cccc5c(S(=O)(=O)O)cccc45)O[C@@H]4O[C@H](CO)[C@@H](O)[C@H](O)[C@H]4O)nn3)cc2)cc1 (some centres unmarked) — kcat/Km (GBA1; enzyme activity, substrate; recombinant human enzyme): 130 ± 9 M⁻¹ s⁻¹
CC(C)CC(NC(=O)C(NC(=O)NC(C(=O)O)C(C)C)C1CCNC(=N)N1)C(=O)NCCCNC(C(=O)O)C(OC1OC(CN)C(O)C1O)C1OC(n2ccc(=O)[nH]c2=O)C(O)C1O (centres unmarked) — ΔS (mraY (Aquifex aeolicus, UniProt O66465, F262A); ITC; F262A mutant): 14.7 ± 2.5 cal/mol/K
C=CC(=O)N1C[C@H](C)N(c2nc(OC[C@@]34CCCN3C[C@H](F)C4)nc3c(F)c(-c4ccc(F)c5sc(N)nc45)c(C(F)(F)F)cc23)C[C@H]1C — IC50 ratio (GTPase KRas, GTP; with RAF1 RBD (KRAS, Homo sapiens, UniProt P01116, G12C); RAF1 RBD binding, HTRF; reference: GTP-bound over GppNHp-bound KRAS G12C): 30 fold
COc1cc(/C=C/C(=O)OCCCC[P+](c2ccccc2)(c2ccccc2)c2ccccc2)ccc1O — catalase activity (Catalase (Rattus norvegicus, UniProt P04762); rat mitochondria; 10 µM, 15 and 30 min): increased
CCCCCCCCOP(=O)(Cc1ccccc1)O[C@@H]1O[C@H](CO)[C@@H](O)[C@H](O)[C@H]1F (some centres unmarked) — inactivation rate constant (GBA1; enzyme activity, irreversible inhibitor; pH 5.5, 37 °C, added: 2,4-dinitrophenyl beta-D-glucopyranoside): 3.67 min⁻¹
CN(C)C(=O)C1CCCN(C(=O)c2ccc(NC(=O)NC34CC5CC(C)(CC(C)(C5)C3)C4)cc2)C1 (centres unmarked) — lipophilic ligand efficiency (EPHX2): 6.5
CCCCCCCCCCCCSc1nc2c([nH]1)c(=O)n(C)c(=S)n2C — remaining activity (Nr3c1; reporter gene, antagonist, MMTV-luciferase; T47D/A1-2; 10 µM, 24 h, added: 5 nM dexamethasone; reference: maximal activity): 97%
O=C(CCCCCCS)Nc1ccccc1 — binding stoichiometry (HDAC8 (Homo sapiens, UniProt Q9BY41); ITC; Tris-HCl buffer; concentration not given, pH 7.5, 25 °C): 1 ± 0.1
CC(C)[C@H](NC(=O)[C@H](CCCCN)NC(=O)[C@H](C)NC(=O)[C@H](CCCCN)NC(=O)CNC(=O)[C@H](CCCNC(=N)N)NC(=O)[C@@H](NC(=O)[C@H](CCCCN)NC(=O)[C@@H](N)CO)[C@@H](C)O)C(=O)N[C@H](C(=O)NCC(=O)N[C@@H](CCCNC(=N)N)C(=O)N[C@@H](Cc1c[nH]c2ccccc12)C(=O)N[C@@H](CCCCN)C(=O)O)[C@@H](C)O — kon (TPM1/ACTA1, with F-actin (Oryctolagus cuniculus, UniProt P58772+P68135); binding, LSPR; pH 7.0, added: F-actin-tropomyosin filaments): 5270 ± 532 M⁻¹ s⁻¹
C=C1C[C@]2(C(=O)OC)C=C(C(=O)Nc3cccc(C(=O)Nc4ccc(Nc5nccc(-c6cccnc6)n5)c(C)c4)c3)C(=O)[C@H]1C2 — k4 (MAPK8 (Homo sapiens, UniProt P45983); binding, SPR; 15, 40, 70 nM, parallel kinetic model): 4e-05 s⁻¹
CC1=NN(c2ccccc2)C(=O)/C1=C\c1ccc(-c2cc(C(=O)O)ccc2Cl)o1 — binding (Kelch-like ECH-associated protein 1 (Mus musculus, UniProt Q9Z2X8); ligand-detected NMR; 50 µM, protein 5 or 2.5 µM): binds
CCCCCCCCSc1nc2c([nH]1)c(=O)n(C)c(=S)n2C — remaining activity (PGR; reporter gene, antagonist, MMTV-luciferase; T47D/A1-2; 10 µM, 24 h, added: 5 nM progesterone; reference: maximal activity): 82%
COc1ccc2occ(/C=C/C(=O)N3CCN(C(=S)SCCCN(C)C)CC3)c(=O)c2c1 — EC50 (tomato spotted wilt virus; virus inactivation, half-leaf method; Nicotiana glutinosa; tested 31.25 to 500 µg/mL): 78.5 ± 6.7 µg/mL (≈ 165 µM)
COc1cc(C(=O)NS(=O)(=O)c2ccc(C(F)(F)F)cc2)ccc1Cc1cn(C)c2ccc(NC(=O)OC3CCCC3)cc12 — Hill coefficient (Tumor necrosis factor receptor superfamily member 1A, extracellular domain (Homo sapiens, UniProt P19438); binding, 19F NMR): 1.59
O=C(Nc1ccc(OC(F)(F)F)cc1)N1CCC(Cc2cccc(Oc3ccc(C(F)(F)F)cn3)c2)CC1 — koff (EPHX2): 0.99 s⁻¹
S=C(Nc1ccc(Cl)cc1)Nc1cccc2[nH]ccc12 — maximum ThT fluorescence (SNCA; fibril formation, ThT fluorescence kinetics; 100 µM, α-syn 2 µM, plateau phase; reference: DMSO vehicle): 8 ± 1%
[3H]C(CNC(=O)c1ccc(-c2ccsc2)cc1)C([3H])CN1CCN(c2ccccc2OCCF)CC1 (centres unmarked) — Bmax (DRD3 (Homo sapiens, UniProt P35462); radioligand, saturation binding; HEK293 membranes): 1980 fmol/mg protein
CC(C)C[C@@H]1NC(=O)[C@H](CCCCN)NC(=O)[C@H](Cc2c[nH]cn2)NC(=O)[C@H](Cc2c[nH]c3ccccc23)NC(=O)CNC(=O)[C@H](CC(C)C)NC(=O)[C@@H](Cc2ccc(O)cc2)NC(=O)CSC[C@@H](C(=O)NCC(=O)N[C@@H](CCCCN)C(=O)N[C@@H](CCCCN)C(=O)N[C@@H](CCCCN)C(N)=O)NC(=O)[C@H](CO)NC(=O)[C@H](CCCNC(=N)N)NC(=O)CNC(=O)[C@H](Cc2ccc(O)cc2)NC(=O)[C@@H]2CCCN2C(=O)[C@H](CCC(N)=O)NC(=O)[C@H](Cc2ccccc2)NC(=O)[C@H](Cc2c[nH]c3ccccc23)NC1=O — fluorescence recovery (SNCA; FRAP; 200 µM, 2 min, room temperature, droplets): ~94%
CC(C)(C)CCN1C[C@@H]2[C@@H](CNC(=O)c3cc(Cl)cc(Cl)c3)[C@@H]2C1.Cl — activation slope factor k (CACNA1C (Oryctolagus cuniculus, UniProt P15381); calcium current, whole-cell patch clamp; HEK-293T cells transfected; 5 µM, median): 8.77 mV
CCOC(=O)c1ccc(N2NC(=O)/C(=C/c3ccc([N+](=O)[O-])o3)C2=O)cc1 — protein degradation (ODD-Luc reporter; inhibitor, cycloheximide chase luciferase; human cells; concentration not given): inhibited

For quick reference, copied from above:
COc1cc(/C=C/C(=O)OCCCC[P+](c2ccccc2)(c2ccccc2)c2ccccc2)ccc1O — catalase activity (Catalase (Rattus norvegicus, UniProt P04762); rat mitochondria; 10 µM, 15 and 30 min): increased
CCCCCCCCOP(=O)(Cc1ccccc1)O[C@@H]1O[C@H](CO)[C@@H](O)[C@H](O)[C@H]1F (some centres unmarked) — inactivation rate constant (GBA1; enzyme activity, irreversible inhibitor; pH 5.5, 37 °C, added: 2,4-dinitrophenyl beta-D-glucopyranoside): 3.67 min⁻¹
